Assay results collected from several papers.
Compare with care: the assays were run in different laboratories.
Method: steady-state kinetics
B1: Gcs (Leishmania donovani, UniProt Q67BG3); chain MGLLTTGGAPIQWGTDANRKAIPHVREHGIQQFLNVFKNKKDLHGMPFLWGEELEHQLIQIHDNTVTLSTESAMVMNKLRARPDNCAVWNPEYGSFMIESTPDHPYSLSVESLDSVQDNIERRYDMLNKEAPPGVVGTTFVTFPLMGQGNFVHCSDKSSPYSQSLFVPDACINQTHPRFANLTANIRLRRGQKVCVLVPLYMDSRTMQDTVDPQLNIDLTPHNKDIFYSMRENGRNMTDELYAETDASAALLVPSSSLDPREDYPVTETLKQLFTPATLYYYAQYFTGQRREHMQERYNACNCPVTLVSHPCIYMDCMAFGMGNSALQVTMQLDNIHEARHVYDQLAILCPAFLALSSATPFQKGLLCDTDVRWLTIAGAVDDRRVEEVPRILKSRYDSISVFISDRTENLEEFNDSQIAINRSYCELLKDSGVDVRLANHIAHLFIRDPLVMYDKMIDIDDTTHTEHFDNIQSTNWQTVRFKPPPIGNDIGWRVEFRVMDIQPTPFENAAFAVFIPLLTKAIITYKPCFYTKISIVDENMGRAHRINPCGEQYIMRKDIFADKCTASDEETARMSIDEIFNGKEGGFYGLIPLVCRYLDDEGKRSPLVNSYLKFLSMRASGRIPTPAQYMRKFVTTHPDYKHDSRLTDSIARDLVQRMHGLAANQIHDDDYLPMSFFTADTVESTK
B2: enzyme R201K (Arabidopsis thaliana, UniProt O82390); chain MNARALLCSSNIHSLYTSNRPPEKTSSSRSLRNLKPSPKSLRVWIYPRNRSSVFRVLVRSSDKSESSNSYYVEGDKVSGNNDVVSDSPSSIVLPWWEEFPKRWVIVLLCFSAFLLCNMDRVNMSIAILPMSAEYGWNPATVGLIQSSFFWGYLLTQIAGGIWADTVGGKRVLGFGVIWWSIATILTPVAAKLGLPYLLVVKAFMGVGEGVAMPAMNNILSKWVPVQERSRSLALVYSGMYLGSVTGLAFSPFLIHQFGWPSVFYSFGSLGTVWLTLWLTKAESSPLEDPTLLPEERKLIADNCASKEPVKSIPWRLILSKPPVWALISCHFCHNWGTFILLTWMPTYYHQVLKFNLMESGLLSVFPWMTMAISANAGGWIADTLVSRGFSVTNVRKIMQTIGFLGPAFFLTQLKHIDSPTMAVLCMACSQGTDAFSQSGLYSNHQDIAPRYSGVLLGLSNTAGVLAGVLGTAATGHILQHGSWDDVFTISVGLYLVGTVIWNLFSTGEKIID
B3: enzyme (Levilactobacillus brevis, UniProt Q03Q85); chain MKVTVVGCTHAGTFAIKQILAEHPDAEVTVYERNDVISFLSCGIALYLGGKVADPQGLFYSSPEELQKLGANVQMNHNVLAIDPDQKTVTVEDLTNHAQTTESYDKLVMTSGSWPIVPKIPGIDSDRVKLCKNWAHAQALIEDAKEAKRITVIGAGYIGAELAEAYSTTGHDVTLIDAMARVMPKYFDADFTDVIEQDYRDHGVQLALGETVESFTDSATGLTIKTDKNSYETDLAILCIGFRPNTDLLKGKVDMAPNGAIITDDYMRSSNPDIFAAGDSAAVHYNPTHQNAYIPLATNAVRQGILVGKNLVKPTVKYMGTQSSSGLALYDRTIVSTGLTLAAAKQQGLNAEQVIVEDNYRPEFMPSTEPVLMSLVFDPDTHRILGGALMSKYDVSQSANTLSVCIQNENTIDDLAMVDMLFQPNFDRPFNYLNILAQAAQAKVAQSVNA
B4: Nudt8 (Mus musculus, UniProt Q9CR24); chain MLPDGLSAEDEQRCRQLLARTTARLRSRPAAAAVLVPLCLVRGVPALLYTLRSSRLVGRHKGEVSFPGGKCDPDDQDVIHTALRETQEELGLEVPKEHVWGVLQPVYDREKATIVPVLANVGPLDLQSLRPNLEEVDEVFEMSLAHLLQTQNQGYTHFCQGGHFSYTLPVFLHGPHRVWGLTAVITELTLKLLAPGFYQPSLAVPELPRG
B5: carbamoyl phosphate synthetase large subunit M378E (Escherichia coli, UniProt P00968); chain PKRTDIKSILILGAGPIVIGQACEFDYSGAQACKALREEGYRVILVNSNPATIMTDPEMADATYIEPIHWEVVRKIIEKERPDAVLPTMGGQTALNCALELERQGVLEEFGVTMIGATADAIDKAEDRRRFDVAMKKIGLETARSGIAHTMEEALAVAADVGFPCIIRPSFTMGGSGGGIAYNREEFEEICARGLDLSPTKELLIDESLIGWKEYEMEVVRDKNDNCIIVCSIENFDAMGIHTGDSITVAPAQTLTDKEYQIMRNASMAVLREIGVETGGSNVQFAVNPKNGRLIVIEMNPRVSRSSALASKATGFPIAKVAAKLAVGYTLDELMNDITGGRTPASFEPSIDYVVTKIPRFNFEKFAGANDRLTTQEKSVGEVMAIGRTQQESLQKALRGLEVGATGFDPKVSLDDPEALTKIRRELKDAGADRIWYIADAFRAGLSVDGVFNLTNIDRWFLVQIEELVRLEEKVAEVGITGLNADFLRQLKRKGFADARLAKLAGVREAEIRKLRDQYDLHPVYKRVDTCAAEFATDTAYMYSTYEEECEANPSTDREKIMVLGGGPNRIGQGIEFDYCCVHASLALREDGYETIMVNCNPETVSTDYDTSDRLYFEPVTLEDVLEIVRIEKPKGVIVQYGGQTPLKLARALEAAGVPVIGTSPDAIDRAEDRERFQHAVERLKLKQPANATVTAIEMAVEKAKEIGYPLVVRPSYVLGGRAMEIVYDEADLRRYFQTAVSVSNDAPVLLDHFLDDAVEVDVDAICDGEMVLIGGIMEHIEQAGVHSGDSACSLPAYTLSQEIQDVMRQQVQKLAFELQVRGLMNVQFAVKNNEVYLIEVNPRAARTVPFVSKATGVPLAKVAARVMAGKSLAEQGVTKEVIPPYYSVKEVVLPFNKFPGVDPLLGPEMRSTGEVMGVGRTFAEAFAKAQLGSNSTMKKHGRALLSVREGDKERVVDLAAKLLKQGFELDATHGTAIVLGEAGINPRLVNKVHEGRPHIQDRIKNGEYTYIINTTSGRRAIEDSRVIRRSALQYKVHYDTTLNGGFATAMALNADATEKVISVQEMHAQIK
B6: protein (Actinidia chinensis, UniProt H9M5U5); chain MATAAGPIATNNSPQNSNAYRTPIAPSVPITHKWSIAEDLTCISNPSKHNNPQTGYRSFSDELYVKYEEKLEDVRKALREVEENPLEGLVMIDALQRLGIDYHFRGEIGAFLQKQQIISSTPDGYPEHGLYEVSTLFRFLRQEGHNVTADVFNNFKDKEGRFRSELSTDIRGLMSLYEASQLRIEGEDILDQAADFSSQLLGRWTKDPNHHEARLVSNTLTHPYHKSLATFMGQKLSYMNCKGPNWDGVDNLQELAKMDLTIVQSIHQKEVFQVSQWWKDTGLANELKLARNQPLKWYMWPMAALTDPRFSEERVELTKPISFIYIIDDIFDVYGTIEELTLFTDAVNRWELSAVEQLPDYMKVCFKALYDVTNEIAYKIYKKHGQNPIDSLQKTWASLCNAFLVEAKWFASGHLPNAEEYLKNGIISSGVHVVLAHMFFLLGDGITQESVDLVDDYPGISTSIATILRLSDDLGSAKDEDQDGYDGSYIECYMKEHKGSSVDSAREEVIRMISEAWKCLNKECLSPNPFSESFRIGSLNMARMIPMMYSYDDNHNLPILEEHMKAMIYNTSL
B7: UGP (Trypanosoma brucei, UniProt D3HTY9); chain MPLNPPSAFSGAALACLEKMQASGVEEKCIHIFLIQHALVRKGETGYIPEKSISPVESLPFLQGIETKGENTALLRQAVVLKLNGGLGTGMGLNGPKSLLQVKNGQTFLDFTALQLEHFRQVRNCNVPFMLMNSFSTSGETKNFLRKYPTLYEVFDSDIELMQNRVPKIRQDNFFPVTYEADPTCEWVPPGHGDVYTVLYSSGKLDYLLGKGYRYMFISNGDNLGATLDVRLLDYMHEKQLGFLMEVCRRTESDKKGGHLAYKDVIDETTGQTRRRFVLRESAQCPKEDEDSFQNIAKHCFFNTNNIWINLMELKKMMDEQLGVLRLPVMRNPKTVNPQDSQSTKVYQLEVAMGAAISLFDRSEAVVVPRERFAPVKTCSDLLALRSDAYQVTEDQRLVLCEERNGKPPAIDLDGEHYKMIDGFEKLVKGGVPSLRQCTSLTVRGLVEFGADVSVRGNVVIKNLKEEPLIIGSGRVLDNEVVVVE
B8: enzyme (Daphnia magna, UniProt A0A0A7CK57); chain MVDAAVAEKLEAGFQKLQEATNCKSLLKKHLTREIFDKIKDLKTSFGSTLLDVIQSGVENLDSGFGVYAPDAEAYSVFNDLFEPMICDYHTGFKPGDAHPPRDFGDLETFGNLDPEGAFIVSTRVRCGRSLAGYAFNPCLTEANYKEMEEKVVASLSSLEGELKGTYYPLTGMTKEVQTQLIQDRFLFKEGDRFLQAANACRYWPTGRGIYHNDAKTFLVWCNEEDHLRIISMQKGGDLKAVYARLVNAINEIEKRIPFSHHDKYGFLTFCPTNLGTTIRASVHIALPKLAADLAKLEEAAGKFNLQVRGTAGEHTEAEGGVYDISNKRRMGLTEYQAVKEMYDGLQELIRMEKEAA
B9: c3712 (Escherichia coli, UniProt A0A0H2VDD9); chain SNKIFTHSLPMRYADFPTLVDALDYAALSSAGMNFYDRRCQLEDQLEYQTLKARAEAGAKRLLSLNLKKGDRVALIAETSSEFVEAFFACQYAGLVAVPLAIPMGVGQRDSWSAKLQGLLASCQPAAIITGDEWLPLVNAATHDNPELHVLSHAWFKALPEADVALQRPVPNDIAYLQYTSGSTRFPRGVIITHREVMANLRAISHDGIKLRPGDRCVSWLPFYHDMGLVGFLLTPVATQLSVDYLRTQDFAMRPLQWLKLISKNRGTVSVAPPFGYELCQRRVNEKDLAELDLSCWRVAGIGAEPISAEQLHQFAECFRQVNFDNKTFMPCYGLAENALAVSFSDEASGVVVNEVDRDILEYQGKAVAPGAETRAVSTFVNCGKALPEHGIEIRNEAGMPVAERVVGHICISGPSLMSGYFGDQVSQDEIAATGWLDTGDLGYLLDGYLYVTGRIKDLIIIRGRNIWPQDIEYIAEQEPEIHSGDAIAFVTAQEKIILQIQCRISDEERRGQLIHALAARIQSEFGVTAAIDLLPPHSIPRTSSGKPARAEAKKRYQKAYAASLNVQESLA
Chain of UniProt A8M783 (whole entry, looked up): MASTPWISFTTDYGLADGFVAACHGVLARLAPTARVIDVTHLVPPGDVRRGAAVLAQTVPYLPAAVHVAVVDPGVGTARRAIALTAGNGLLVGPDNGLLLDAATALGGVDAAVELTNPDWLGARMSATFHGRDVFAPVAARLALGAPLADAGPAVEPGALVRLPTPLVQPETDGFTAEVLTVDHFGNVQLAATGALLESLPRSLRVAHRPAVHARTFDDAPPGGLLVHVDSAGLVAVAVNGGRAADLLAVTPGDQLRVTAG
Chain of UniProt P19337 (whole entry, looked up): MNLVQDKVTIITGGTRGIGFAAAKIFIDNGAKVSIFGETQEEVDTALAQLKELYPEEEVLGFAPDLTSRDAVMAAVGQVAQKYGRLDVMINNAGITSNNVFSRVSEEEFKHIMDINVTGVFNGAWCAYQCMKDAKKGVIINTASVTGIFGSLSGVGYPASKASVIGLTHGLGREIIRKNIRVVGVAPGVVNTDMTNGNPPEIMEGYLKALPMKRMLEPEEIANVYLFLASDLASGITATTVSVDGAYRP

| Molecule | substrate | pH | temperature | setting | together with | Km |
| --- | --- | --- | --- | --- | --- | --- |
| BaiA2 (Clostridium scindens, UniProt P19337) | NC(=O)c1ccc[n+]([C@@H]2O[C@H](COP(=O)(O)OP(=O)(O)OC[C@H]3O[C@@H](n4cnc5c(N)ncnc54)[C@H](OP(=O)(O)O)[C@@H]3O)[C@@H](O)[C@H]2O)c1 | pH 8.7 | 37 °C | cofactor varied | glycocholic acid 1.4 mM | 84 µM |
| B1 (Gcs) | N[C@@H](CCC(=O)O)C(=O)O | – | – | apparent | ATP, L-cysteine, Mg2+ | 9200 µM |
| B2 (enzyme R201K) | O=P(O)(O)O | pH 6.5 | 25 °C | apparent, not purified | – | 214 µM |
| B3 (enzyme) | NC(=O)C1=CN([C@@H]2O[C@H](COP(=O)(O)OP(=O)(O)OC[C@H]3O[C@@H](n4cnc5c(N)ncnc54)[C@H](O)[C@@H]3O)[C@@H](O)[C@H]2O)C=CC1 | pH 7.5 | 37 °C | – | – | 69 µM |
| B4 (Nudt8) | CC(C)(COP(=O)(O)OP(=O)(O)OC[C@H]1O[C@@H](n2cnc3c(N)ncnc32)[C@H](O)[C@@H]1OP(=O)(O)O)[C@@H](O)C(=O)NCCC(=O)NCCS | pH 8.5 | – | – | 2 mM Mn2+ | 150 µM |
| B5 | Nc1ncnc2c1ncn2[C@@H]1O[C@H](COP(=O)(O)OP(=O)(O)OP(=O)(O)O)[C@@H](O)[C@H]1O | pH 7.6 | – | KCl 100 mM | glutamine 10 mM, ornithine 10 mM | 160 µM |
| B6 (protein) | CC(C)=CCC/C(C)=C/CC/C(C)=C/CO[P@@](=O)(O)OP(=O)(O)O | pH 7.5 | room temperature | labelled compound | MgCl2 20 mM | 0.8 µM |
| protein (Salinispora arenicola, UniProt A8M783) | C[S+](CC[C@H](N)C(=O)O)C[C@H]1O[C@@H](n2cnc3c(N)ncnc32)[C@H](O)[C@@H]1O | pH 7.9 | 37 °C | apparent | – | 1.6 µM |
| enzyme (Salvia miltiorrhiza, UniProt A0A4Y5RRG0) | Oc1cc(O)c2c(c1)O[C@H](c1ccc(O)c(O)c1)[C@H](O)[C@H]2c1c(O)cc(O)c2c1O[C@H](c1ccc(O)c(O)c1)[C@@H](O)C2 | pH 5 | 28 °C | – | – | 32.1 µM |
| B7 (UGP) | O=P(O)(O)O[C@H]1O[C@H](CO)[C@@H](O)[C@H](O)[C@H]1O | pH 7.2 | – | apparent | – | 122 µM |
| B8 (enzyme) | N=C(N)NCCC[C@H](N)C(=O)O | pH 8.5 | – | – | – | 900 µM |
| B9 (c3712) | CCCCCCCC(=O)O | pH 7.5 | 30 °C | – | – | 94 µM |

A few entries again:
| Molecule | substrate | pH | temperature | setting | together with | Km |
| --- | --- | --- | --- | --- | --- | --- |
| B8 (enzyme) | N=C(N)NCCC[C@H](N)C(=O)O | pH 8.5 | – | – | – | 900 µM |
| B7 (UGP) | O=P(O)(O)O[C@H]1O[C@H](CO)[C@@H](O)[C@H](O)[C@H]1O | pH 7.2 | – | apparent | – | 122 µM |
